Measured values of several laboratories.
Numbered parts are unrelated; each lists some results of a single study.
Chain of UniProt P42680 (whole entry, looked up): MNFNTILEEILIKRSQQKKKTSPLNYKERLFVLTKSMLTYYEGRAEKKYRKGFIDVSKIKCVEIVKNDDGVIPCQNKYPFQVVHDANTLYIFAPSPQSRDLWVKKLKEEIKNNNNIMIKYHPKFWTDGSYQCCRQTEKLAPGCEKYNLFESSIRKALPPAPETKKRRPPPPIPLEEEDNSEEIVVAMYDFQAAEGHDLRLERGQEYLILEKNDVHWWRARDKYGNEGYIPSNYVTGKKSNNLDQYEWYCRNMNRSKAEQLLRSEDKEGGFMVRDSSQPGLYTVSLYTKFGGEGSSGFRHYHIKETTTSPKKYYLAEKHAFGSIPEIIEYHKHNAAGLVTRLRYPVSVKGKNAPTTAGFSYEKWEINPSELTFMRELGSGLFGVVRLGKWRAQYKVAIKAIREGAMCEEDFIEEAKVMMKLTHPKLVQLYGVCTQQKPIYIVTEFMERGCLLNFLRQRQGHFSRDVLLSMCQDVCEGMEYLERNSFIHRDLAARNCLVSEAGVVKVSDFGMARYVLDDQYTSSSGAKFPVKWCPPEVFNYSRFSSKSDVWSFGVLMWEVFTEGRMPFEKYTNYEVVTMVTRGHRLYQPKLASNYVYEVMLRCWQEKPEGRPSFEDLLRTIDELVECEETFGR
Chain of UniProt Q96SB4 (whole entry, looked up): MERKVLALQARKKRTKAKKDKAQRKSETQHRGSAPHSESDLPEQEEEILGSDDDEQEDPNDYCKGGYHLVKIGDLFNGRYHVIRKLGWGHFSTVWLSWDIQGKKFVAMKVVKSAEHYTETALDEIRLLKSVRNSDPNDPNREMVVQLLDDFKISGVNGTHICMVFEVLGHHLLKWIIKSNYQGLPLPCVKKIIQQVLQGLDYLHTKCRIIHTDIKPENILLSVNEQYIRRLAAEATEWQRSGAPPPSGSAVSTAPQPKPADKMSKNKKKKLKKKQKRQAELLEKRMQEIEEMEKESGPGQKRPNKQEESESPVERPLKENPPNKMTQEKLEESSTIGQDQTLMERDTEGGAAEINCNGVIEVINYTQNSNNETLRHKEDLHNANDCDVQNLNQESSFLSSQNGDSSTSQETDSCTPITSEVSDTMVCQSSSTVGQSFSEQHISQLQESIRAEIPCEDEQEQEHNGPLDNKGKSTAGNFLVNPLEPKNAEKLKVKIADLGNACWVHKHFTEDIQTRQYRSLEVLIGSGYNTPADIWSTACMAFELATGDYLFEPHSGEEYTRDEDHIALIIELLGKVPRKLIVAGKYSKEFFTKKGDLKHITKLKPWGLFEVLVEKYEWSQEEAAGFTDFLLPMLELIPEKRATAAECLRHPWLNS
Chain of UniProt P49841 (whole entry, looked up): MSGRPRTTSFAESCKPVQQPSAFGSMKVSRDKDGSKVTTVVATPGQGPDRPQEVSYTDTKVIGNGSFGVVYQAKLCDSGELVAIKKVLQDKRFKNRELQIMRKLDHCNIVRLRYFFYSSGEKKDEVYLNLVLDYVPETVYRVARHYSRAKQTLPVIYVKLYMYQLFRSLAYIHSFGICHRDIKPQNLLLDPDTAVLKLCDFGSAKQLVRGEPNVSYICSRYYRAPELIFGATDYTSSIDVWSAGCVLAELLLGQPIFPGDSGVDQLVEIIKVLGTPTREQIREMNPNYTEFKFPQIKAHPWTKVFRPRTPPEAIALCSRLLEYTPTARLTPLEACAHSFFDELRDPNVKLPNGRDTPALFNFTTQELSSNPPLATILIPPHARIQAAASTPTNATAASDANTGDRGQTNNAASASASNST
Chain of UniProt P16591 (whole entry, looked up): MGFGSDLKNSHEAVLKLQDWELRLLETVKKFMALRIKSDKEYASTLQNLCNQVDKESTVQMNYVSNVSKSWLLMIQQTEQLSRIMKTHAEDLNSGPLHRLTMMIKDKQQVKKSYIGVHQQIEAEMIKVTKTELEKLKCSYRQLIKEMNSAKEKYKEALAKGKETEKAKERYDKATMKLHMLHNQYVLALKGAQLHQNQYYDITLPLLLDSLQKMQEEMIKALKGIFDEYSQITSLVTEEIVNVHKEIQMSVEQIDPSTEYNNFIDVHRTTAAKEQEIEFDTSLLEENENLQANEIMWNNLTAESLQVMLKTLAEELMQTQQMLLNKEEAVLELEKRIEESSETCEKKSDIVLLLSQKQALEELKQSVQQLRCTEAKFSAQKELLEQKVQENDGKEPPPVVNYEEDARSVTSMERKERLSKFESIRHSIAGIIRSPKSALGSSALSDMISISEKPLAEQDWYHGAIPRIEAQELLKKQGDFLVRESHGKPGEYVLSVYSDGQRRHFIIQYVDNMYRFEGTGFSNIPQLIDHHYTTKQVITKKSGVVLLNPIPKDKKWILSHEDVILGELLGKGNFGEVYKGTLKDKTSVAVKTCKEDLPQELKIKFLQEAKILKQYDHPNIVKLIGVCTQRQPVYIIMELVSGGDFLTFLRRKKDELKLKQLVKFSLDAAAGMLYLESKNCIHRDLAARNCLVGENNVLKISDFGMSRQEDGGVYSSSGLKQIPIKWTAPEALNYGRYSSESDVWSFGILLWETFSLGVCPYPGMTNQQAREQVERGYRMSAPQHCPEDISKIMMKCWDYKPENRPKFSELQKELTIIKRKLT
Chain of UniProt P19784 (whole entry, looked up): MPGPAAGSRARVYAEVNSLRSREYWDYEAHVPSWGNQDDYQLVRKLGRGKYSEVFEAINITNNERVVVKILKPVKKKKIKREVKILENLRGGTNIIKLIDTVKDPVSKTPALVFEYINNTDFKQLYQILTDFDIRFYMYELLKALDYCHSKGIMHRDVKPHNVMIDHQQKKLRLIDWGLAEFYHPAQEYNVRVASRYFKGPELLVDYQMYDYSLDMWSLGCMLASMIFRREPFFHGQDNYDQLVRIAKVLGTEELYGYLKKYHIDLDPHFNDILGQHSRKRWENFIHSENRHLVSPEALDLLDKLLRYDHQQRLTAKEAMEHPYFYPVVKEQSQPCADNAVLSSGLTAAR
Chain of UniProt Q9HBY8 (whole entry, looked up): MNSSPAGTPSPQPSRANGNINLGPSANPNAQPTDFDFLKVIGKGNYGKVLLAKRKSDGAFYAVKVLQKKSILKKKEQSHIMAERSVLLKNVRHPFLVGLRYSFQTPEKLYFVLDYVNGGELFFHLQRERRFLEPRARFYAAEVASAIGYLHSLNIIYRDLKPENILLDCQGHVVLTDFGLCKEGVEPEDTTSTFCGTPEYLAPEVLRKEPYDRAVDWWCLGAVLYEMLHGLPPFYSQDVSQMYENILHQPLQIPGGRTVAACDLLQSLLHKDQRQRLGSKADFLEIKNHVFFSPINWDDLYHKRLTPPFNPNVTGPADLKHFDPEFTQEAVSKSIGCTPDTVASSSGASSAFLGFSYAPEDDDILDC
Chain of UniProt P49759 (whole entry, looked up): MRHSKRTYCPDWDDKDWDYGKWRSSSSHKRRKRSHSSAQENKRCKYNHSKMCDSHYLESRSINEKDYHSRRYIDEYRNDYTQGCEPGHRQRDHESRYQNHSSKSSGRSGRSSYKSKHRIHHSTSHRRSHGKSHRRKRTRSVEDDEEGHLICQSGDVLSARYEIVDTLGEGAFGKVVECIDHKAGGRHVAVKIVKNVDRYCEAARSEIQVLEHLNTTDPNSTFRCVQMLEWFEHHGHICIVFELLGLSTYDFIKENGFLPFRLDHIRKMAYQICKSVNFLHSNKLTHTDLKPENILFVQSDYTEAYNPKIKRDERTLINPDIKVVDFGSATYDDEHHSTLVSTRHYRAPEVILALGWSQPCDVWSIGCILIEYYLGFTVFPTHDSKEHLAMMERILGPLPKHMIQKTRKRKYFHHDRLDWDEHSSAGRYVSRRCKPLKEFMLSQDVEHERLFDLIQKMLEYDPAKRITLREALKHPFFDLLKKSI
Chain of UniProt P51812 (whole entry, looked up): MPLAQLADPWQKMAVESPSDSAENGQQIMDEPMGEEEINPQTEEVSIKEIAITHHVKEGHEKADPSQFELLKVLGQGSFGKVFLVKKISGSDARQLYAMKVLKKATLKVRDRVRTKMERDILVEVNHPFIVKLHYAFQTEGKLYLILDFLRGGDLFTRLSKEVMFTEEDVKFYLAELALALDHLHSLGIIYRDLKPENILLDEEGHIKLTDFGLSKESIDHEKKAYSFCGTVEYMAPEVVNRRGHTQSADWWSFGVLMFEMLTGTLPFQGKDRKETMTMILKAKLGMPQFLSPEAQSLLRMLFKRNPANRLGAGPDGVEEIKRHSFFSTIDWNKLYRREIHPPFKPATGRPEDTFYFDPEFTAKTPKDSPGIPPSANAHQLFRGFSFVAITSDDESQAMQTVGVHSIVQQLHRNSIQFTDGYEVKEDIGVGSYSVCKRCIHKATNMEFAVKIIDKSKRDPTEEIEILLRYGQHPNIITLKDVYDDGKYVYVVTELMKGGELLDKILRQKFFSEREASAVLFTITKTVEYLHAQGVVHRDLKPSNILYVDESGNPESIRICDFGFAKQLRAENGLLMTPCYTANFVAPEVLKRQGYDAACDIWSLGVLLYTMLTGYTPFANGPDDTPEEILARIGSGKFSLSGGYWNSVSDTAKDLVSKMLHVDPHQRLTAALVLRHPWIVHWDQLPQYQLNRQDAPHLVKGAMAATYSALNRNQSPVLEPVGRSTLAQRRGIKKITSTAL
Chain of UniProt P07947 (whole entry, looked up): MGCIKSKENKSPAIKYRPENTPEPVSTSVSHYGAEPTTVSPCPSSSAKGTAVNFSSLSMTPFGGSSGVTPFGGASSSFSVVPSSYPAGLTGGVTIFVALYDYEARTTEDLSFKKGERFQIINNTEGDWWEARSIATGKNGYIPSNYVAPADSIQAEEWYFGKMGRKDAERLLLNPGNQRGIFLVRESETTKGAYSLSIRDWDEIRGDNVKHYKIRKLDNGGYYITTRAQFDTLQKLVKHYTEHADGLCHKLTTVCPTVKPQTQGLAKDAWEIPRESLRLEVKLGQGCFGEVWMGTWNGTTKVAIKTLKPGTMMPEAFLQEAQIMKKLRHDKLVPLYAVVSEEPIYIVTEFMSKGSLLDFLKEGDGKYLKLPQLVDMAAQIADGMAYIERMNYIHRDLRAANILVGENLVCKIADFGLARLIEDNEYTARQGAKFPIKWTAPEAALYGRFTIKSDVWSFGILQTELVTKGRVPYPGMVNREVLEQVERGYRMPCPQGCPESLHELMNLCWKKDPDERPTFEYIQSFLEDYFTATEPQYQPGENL

Sample 1
Compound: CNC(=O)Nc1ccc2c(c1)CC[C@@]21OC(=O)N(CC(=O)N(Cc2ccc(F)cc2)[C@@H](C)C(F)(F)F)C1=O
Read-out: cell-free assay
Method: competition with immobilised ligand
Concentration: 1 µM
For Inhibitor of nuclear factor kappa-B kinase subunit alpha (CHUK, Homo sapiens, UniProt O15111): remaining binding read 92%.
For Glycogen synthase kinase-3 beta (GSK3B, Homo sapiens, UniProt P49841): remaining binding read 82%.
It gave 84% for remaining binding (MAP/microtubule affinity-regulating kinase 4 (MARK4, Homo sapiens, UniProt Q96L34)).
The remaining binding was 79% (Serine/threonine-protein kinase SBK1 (SBK1, Homo sapiens, UniProt Q52WX2)).
It gave 80% for remaining binding (Wee1-like protein kinase (WEE1, Homo sapiens, UniProt P30291)).
Mitogen-activated protein kinase kinase kinase 19 (MAP3K19, Homo sapiens, UniProt Q56UN5) — remaining binding: 78%.
SRSF protein kinase 1 (SRPK1, Homo sapiens, UniProt Q96SB4) — remaining binding: 95%.
For Cyclin-dependent kinase 17 (CDK17, Homo sapiens, UniProt Q00537): remaining binding read 96%.
For Casein kinase II subunit alpha' (CSNK2A2, Homo sapiens, UniProt P19784): remaining binding read 100%.
For Serine/threonine-protein kinase 32C (STK32C, Homo sapiens, UniProt Q86UX6): remaining binding read 88%.

Sample 2
Cell line: HaCaT
Concentration: 100 µM
Time: 18 h
The viability of `CC(C)(C)CC(C)(C)c1ccc(O)c(Cc2ccc(Cl)cc2Cl)c1` is reported as 16.4%.
`COc1cc(C=O)ccc1O` has a viability of 95.9%.
`NC(=O)NS(=O)(=O)c1ccc(N)cc1` gave a viability of 114%.
With `CCc1nn(CCCN2CCN(c3cccc(Cl)c3)CC2)c(=O)n1CCOc1ccccc1` the viability was 28.3%.
`CSCC1CN(/N=C/c2ccc([N+](=O)[O-])o2)C(=O)O1` (centres unmarked) gave a viability of 65.4%.
With `Oc1ccc(OCc2ccccc2)cc1` the viability was 72.7%.

Sample 3
Compound: COc1ccc(-c2cnc3c(-c4ccsc4)cnn3c2)cc1
Read-out: enzyme activity
Action: inhibitor
Concentration: 0.5 µM
Relative to: control
Tyrosine-protein kinase Yes (YES1, Homo sapiens, UniProt P07947) — remaining activity: 67.7%.
It gave 83.6% for remaining activity (Casein kinase I isoform delta (CSNK1D, Homo sapiens, UniProt P48730)).
For Cyclin-dependent kinase 5, with p35 (CDK5, Homo sapiens, UniProt Q00535): remaining activity read 64.5%.
For Dual specificity tyrosine-phosphorylation-regulated kinase 1A (DYRK1A, Homo sapiens, UniProt Q13627): remaining activity read 69.7%.
It gave 87% for remaining activity (Tyrosine-protein kinase JAK1 (JAK1, Homo sapiens, UniProt P23458)).
It gave 91.8% for remaining activity (Tyrosine-protein kinase receptor TYRO3 (TYRO3, Homo sapiens, UniProt Q06418)).
It gave 79.2% for remaining activity (Calcium/calmodulin-dependent protein kinase kinase 1 (CAMKK1, Homo sapiens, UniProt Q8N5S9)).
Serine/threonine-protein kinase MARK1 (MARK1, Homo sapiens, UniProt Q9P0L2) — remaining activity: 98.9%.
The remaining activity was 102% (Receptor tyrosine-protein kinase erbB-2 (ERBB2, Homo sapiens, UniProt P04626)).
Ribosomal protein S6 kinase alpha-3 (RPS6KA3, Homo sapiens, UniProt P51812) — remaining activity: 83.6%.
For Casein kinase I isoform epsilon (CSNK1E, Homo sapiens, UniProt P49674): remaining activity read 86.3%.
Maternal embryonic leucine zipper kinase (MELK, Homo sapiens, UniProt Q14680) — remaining activity: 73.6%.
For Tyrosine-protein kinase Tec (TEC, Homo sapiens, UniProt P42680): remaining activity read 124%.
The remaining activity was 72.5% (Serine/threonine-protein kinase PAK 4 (PAK4, Homo sapiens, UniProt O96013)).
For Calcium/calmodulin-dependent protein kinase type 1 (CAMK1, Homo sapiens, UniProt Q14012): remaining activity read 104%.
Activin receptor type-1-like (ACVRL1, Homo sapiens, UniProt P37023) — remaining activity: 76.4%.
For Mitogen-activated protein kinase kinase kinase 20 (MAP3K20, Homo sapiens, UniProt Q9NYL2): remaining activity read 84.1%.
The remaining activity was 98.4% (Tyrosine-protein kinase JAK2 (JAK2, Homo sapiens, UniProt O60674)).
For Muscle, skeletal receptor tyrosine-protein kinase (MUSK, Homo sapiens, UniProt O15146): remaining activity read 74.9%.
SRSF protein kinase 1 (SRPK1, Homo sapiens, UniProt Q96SB4) — remaining activity: 101%.
It gave 82.8% for remaining activity (Dual specificity protein kinase CLK1 (CLK1, Homo sapiens, UniProt P49759)).
The remaining activity was 97% (Serine/threonine-protein kinase PAK 1 (PAK1, Homo sapiens, UniProt Q13153)).
The remaining activity was 96.7% (Serine/threonine-protein kinase Sgk2 (SGK2, Homo sapiens, UniProt Q9HBY8)).
For Vascular endothelial growth factor receptor 1 (FLT1, Homo sapiens, UniProt P17948): remaining activity read 75.7%.
The remaining activity was 79.4% (Serine/threonine-protein kinase SIK2 (SIK2, Homo sapiens, UniProt Q9H0K1)).

Sample 4
SMILES: CN1CCN(C(=O)c2ccc(NC(=O)Nc3ccc(N(C)c4ccnc(Nc5ccc(CS(C)(=O)=O)cc5)n4)cc3)cc2)CC1
Read-out: binding
Concentration: 1 µM
The remaining binding was 46% (Tyrosine-protein kinase Fer (FER, Homo sapiens, UniProt P16591)).
It gave 0% for remaining binding (Epithelial discoidin domain-containing receptor 1 (DDR1, Homo sapiens, UniProt Q08345); competition with immobilised ligand).
It gave 20% for remaining binding (Protein-tyrosine kinase 2-beta (PTK2B, Homo sapiens, UniProt Q14289)).
For Phosphatidylinositol 4,5-bisphosphate 3-kinase catalytic subunit alpha isoform (PIK3CA, Homo sapiens, UniProt P42336): remaining binding read 98%.
It gave 100% for remaining binding (Tyrosine-protein kinase Tec (TEC, Homo sapiens, UniProt P42680); competition with immobilised ligand).
The remaining binding was 100% (cGMP-dependent protein kinase 1 (PRKG1, Homo sapiens, UniProt Q13976)).
It gave 87% for remaining binding (Tyrosine-protein kinase Blk (BLK, Homo sapiens, UniProt P51451); competition with immobilised ligand).
The remaining binding was 25% (Mitogen-activated protein kinase 15 (MAPK15, Homo sapiens, UniProt Q8TD08); competition with immobilised ligand).
It gave 0% for remaining binding (Mast/stem cell growth factor receptor Kit (KIT, Homo sapiens, UniProt P10721, A829P)).

Some of these lines once more (sample 3):
Activin receptor type-1-like (ACVRL1, Homo sapiens, UniProt P37023) — remaining activity: 76.4%.
For Mitogen-activated protein kinase kinase kinase 20 (MAP3K20, Homo sapiens, UniProt Q9NYL2): remaining activity read 84.1%.
The remaining activity was 98.4% (Tyrosine-protein kinase JAK2 (JAK2, Homo sapiens, UniProt O60674)).
For Muscle, skeletal receptor tyrosine-protein kinase (MUSK, Homo sapiens, UniProt O15146): remaining activity read 74.9%.
SRSF protein kinase 1 (SRPK1, Homo sapiens, UniProt Q96SB4) — remaining activity: 101%.
It gave 82.8% for remaining activity (Dual specificity protein kinase CLK1 (CLK1, Homo sapiens, UniProt P49759)).
The remaining activity was 97% (Serine/threonine-protein kinase PAK 1 (PAK1, Homo sapiens, UniProt Q13153)).
The remaining activity was 96.7% (Serine/threonine-protein kinase Sgk2 (SGK2, Homo sapiens, UniProt Q9HBY8)).
